Measured values of several laboratories.
A part holds a random share of what one study measured.
Chain of UniProt Q02763 (whole entry, looked up): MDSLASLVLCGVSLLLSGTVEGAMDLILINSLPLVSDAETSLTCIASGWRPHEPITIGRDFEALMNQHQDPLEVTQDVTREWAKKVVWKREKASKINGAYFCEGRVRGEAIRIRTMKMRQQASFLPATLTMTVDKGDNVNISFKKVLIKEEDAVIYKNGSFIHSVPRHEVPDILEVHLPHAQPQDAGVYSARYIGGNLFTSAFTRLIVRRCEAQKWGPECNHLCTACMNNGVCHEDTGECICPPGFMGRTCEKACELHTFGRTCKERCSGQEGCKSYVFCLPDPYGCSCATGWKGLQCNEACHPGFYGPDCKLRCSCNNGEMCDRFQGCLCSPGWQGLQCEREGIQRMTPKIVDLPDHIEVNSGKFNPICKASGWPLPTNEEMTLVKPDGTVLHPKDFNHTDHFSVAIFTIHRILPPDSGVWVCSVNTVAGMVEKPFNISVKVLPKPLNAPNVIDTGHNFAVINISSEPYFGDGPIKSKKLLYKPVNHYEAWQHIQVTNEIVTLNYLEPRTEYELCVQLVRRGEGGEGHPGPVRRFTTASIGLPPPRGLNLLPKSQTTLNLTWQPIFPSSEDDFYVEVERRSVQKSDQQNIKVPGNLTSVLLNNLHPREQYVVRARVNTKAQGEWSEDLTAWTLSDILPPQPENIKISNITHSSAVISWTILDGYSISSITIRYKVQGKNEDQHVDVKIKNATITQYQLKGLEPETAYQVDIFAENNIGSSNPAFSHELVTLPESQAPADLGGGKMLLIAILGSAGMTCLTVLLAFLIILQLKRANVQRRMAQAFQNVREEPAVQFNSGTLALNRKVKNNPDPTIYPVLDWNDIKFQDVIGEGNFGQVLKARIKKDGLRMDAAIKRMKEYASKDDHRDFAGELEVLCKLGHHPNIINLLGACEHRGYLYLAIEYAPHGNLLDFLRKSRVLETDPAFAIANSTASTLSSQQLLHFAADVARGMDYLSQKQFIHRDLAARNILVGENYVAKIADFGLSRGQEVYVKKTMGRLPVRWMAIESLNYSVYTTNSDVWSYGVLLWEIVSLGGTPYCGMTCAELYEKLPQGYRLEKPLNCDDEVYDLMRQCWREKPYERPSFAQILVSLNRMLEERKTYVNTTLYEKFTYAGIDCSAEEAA
Chain of UniProt P36896 (whole entry, looked up): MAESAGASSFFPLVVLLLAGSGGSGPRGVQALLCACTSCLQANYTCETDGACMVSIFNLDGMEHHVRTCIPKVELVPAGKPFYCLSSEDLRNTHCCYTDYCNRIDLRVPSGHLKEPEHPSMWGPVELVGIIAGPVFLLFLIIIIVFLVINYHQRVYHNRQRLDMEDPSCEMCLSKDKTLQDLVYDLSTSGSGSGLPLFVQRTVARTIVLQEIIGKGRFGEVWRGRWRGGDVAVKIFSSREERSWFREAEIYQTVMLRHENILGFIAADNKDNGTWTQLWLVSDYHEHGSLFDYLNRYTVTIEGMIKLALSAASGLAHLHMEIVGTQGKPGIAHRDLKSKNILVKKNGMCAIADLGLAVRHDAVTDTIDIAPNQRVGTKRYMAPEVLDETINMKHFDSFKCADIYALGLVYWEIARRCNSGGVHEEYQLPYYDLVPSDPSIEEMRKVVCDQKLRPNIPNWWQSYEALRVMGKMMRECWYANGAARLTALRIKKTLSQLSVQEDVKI
Chain of UniProt P22607 (whole entry, looked up): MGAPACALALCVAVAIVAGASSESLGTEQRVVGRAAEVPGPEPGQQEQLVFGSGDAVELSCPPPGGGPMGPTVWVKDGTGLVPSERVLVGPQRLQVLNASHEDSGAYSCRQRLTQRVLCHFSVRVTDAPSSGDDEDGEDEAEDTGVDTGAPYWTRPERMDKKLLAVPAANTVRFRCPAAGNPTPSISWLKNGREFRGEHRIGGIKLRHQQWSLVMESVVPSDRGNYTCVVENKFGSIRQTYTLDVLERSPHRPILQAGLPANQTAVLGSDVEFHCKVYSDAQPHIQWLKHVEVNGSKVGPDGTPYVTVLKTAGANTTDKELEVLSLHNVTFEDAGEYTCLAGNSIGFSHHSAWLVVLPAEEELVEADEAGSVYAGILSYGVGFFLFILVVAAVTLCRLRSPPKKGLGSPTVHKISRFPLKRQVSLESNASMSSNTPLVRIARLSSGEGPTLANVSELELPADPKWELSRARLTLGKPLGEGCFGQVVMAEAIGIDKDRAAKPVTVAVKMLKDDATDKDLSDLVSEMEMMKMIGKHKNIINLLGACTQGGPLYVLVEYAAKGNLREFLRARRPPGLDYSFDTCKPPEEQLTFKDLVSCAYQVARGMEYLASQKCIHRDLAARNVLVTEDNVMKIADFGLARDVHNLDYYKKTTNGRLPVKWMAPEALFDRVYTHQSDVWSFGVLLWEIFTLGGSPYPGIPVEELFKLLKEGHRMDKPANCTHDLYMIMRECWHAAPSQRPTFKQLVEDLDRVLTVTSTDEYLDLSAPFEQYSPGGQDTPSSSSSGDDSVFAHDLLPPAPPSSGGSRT
Chain of UniProt P49137 (whole entry, looked up): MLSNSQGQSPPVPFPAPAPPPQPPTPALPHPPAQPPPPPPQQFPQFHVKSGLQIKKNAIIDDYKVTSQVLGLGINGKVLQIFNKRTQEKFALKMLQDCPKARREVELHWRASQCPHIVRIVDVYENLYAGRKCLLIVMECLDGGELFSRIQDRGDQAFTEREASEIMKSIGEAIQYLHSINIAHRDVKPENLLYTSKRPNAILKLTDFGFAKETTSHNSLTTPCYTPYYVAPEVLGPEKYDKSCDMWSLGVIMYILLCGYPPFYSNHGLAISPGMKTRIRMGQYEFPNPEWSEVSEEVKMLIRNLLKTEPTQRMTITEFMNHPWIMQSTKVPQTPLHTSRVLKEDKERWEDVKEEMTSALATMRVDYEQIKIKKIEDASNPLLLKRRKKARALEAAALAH
Chain of UniProt P11362 (whole entry, looked up): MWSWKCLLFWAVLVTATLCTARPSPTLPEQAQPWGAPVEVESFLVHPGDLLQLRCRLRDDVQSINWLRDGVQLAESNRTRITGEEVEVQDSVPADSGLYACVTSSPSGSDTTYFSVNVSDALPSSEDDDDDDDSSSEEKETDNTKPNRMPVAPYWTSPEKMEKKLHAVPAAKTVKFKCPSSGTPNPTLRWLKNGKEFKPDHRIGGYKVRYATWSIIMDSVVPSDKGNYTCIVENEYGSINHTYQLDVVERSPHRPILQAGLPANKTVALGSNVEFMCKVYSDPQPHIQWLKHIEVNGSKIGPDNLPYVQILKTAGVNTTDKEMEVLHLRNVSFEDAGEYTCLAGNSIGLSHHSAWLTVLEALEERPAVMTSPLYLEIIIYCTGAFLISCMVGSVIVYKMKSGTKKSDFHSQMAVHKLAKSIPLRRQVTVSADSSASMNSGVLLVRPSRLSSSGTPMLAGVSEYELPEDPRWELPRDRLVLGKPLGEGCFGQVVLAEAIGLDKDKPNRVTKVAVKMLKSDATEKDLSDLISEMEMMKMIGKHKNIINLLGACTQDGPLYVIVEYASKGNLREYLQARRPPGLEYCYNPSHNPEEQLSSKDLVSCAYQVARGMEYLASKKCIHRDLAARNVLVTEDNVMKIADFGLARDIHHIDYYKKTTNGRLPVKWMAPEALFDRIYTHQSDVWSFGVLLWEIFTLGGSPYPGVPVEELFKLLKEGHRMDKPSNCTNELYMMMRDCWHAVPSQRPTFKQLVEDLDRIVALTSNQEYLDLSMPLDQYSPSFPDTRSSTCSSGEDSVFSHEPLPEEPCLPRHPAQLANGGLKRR
Chain of UniProt Q15349 (whole entry, looked up): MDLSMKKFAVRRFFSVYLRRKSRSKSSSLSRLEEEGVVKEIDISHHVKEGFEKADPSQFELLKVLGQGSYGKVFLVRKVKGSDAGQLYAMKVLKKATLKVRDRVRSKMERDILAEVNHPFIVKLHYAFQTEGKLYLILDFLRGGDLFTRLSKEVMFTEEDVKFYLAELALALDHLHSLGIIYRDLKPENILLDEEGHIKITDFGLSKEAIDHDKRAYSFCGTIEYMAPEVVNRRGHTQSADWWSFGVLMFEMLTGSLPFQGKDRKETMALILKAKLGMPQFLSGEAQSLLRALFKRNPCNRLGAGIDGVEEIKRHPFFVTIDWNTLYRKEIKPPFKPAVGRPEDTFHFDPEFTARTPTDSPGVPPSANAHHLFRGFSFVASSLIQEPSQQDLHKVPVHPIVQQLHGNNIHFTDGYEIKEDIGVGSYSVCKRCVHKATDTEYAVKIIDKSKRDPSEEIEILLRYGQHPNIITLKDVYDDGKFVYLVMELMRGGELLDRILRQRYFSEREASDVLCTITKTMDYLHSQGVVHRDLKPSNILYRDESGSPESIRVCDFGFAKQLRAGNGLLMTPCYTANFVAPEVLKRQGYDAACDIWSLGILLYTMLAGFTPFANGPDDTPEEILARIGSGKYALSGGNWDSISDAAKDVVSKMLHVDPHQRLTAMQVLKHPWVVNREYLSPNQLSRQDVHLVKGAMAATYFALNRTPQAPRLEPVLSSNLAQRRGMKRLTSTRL
Chain of UniProt Q9HC98 (whole entry, looked up): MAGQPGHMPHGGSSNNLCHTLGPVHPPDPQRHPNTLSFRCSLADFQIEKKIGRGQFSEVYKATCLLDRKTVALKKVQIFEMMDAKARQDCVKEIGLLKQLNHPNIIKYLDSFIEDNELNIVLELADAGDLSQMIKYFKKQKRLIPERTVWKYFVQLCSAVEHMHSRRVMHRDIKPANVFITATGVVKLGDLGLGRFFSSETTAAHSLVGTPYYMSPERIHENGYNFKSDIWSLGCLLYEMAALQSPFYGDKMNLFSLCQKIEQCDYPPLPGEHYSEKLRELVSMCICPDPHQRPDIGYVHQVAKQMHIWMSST

Series 1
Target: Myc proto-oncogene protein, bHLH-zipper, MAX partner unstated (MYC, Homo sapiens, UniProt P01106, residues 368-449)
Chain of UniProt P01106 (368-449, looked up): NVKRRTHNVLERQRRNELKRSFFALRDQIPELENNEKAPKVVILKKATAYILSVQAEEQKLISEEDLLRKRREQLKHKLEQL
Method: protein-binding microarray
Form: double-stranded DNA, one strand shown
Matrix: in vitro
Concentration: not given
Notes: k-mer, scored over probes, only values ≥0.25
Direction: higher = stronger binding
The E-score of `GTGTGGTA` is reported as 0.257.
With `CATGGGAC` the E-score was 0.333.
`CACGCATC` has an E-score of 0.39.
`GCGTGCCA` has an E-score of 0.357.
The E-score of `ATGTGGTC` is reported as 0.366.
`CAGGCATG` gave an E-score of 0.349.
`ACGCATGA` has an E-score of 0.366.
With `GTGGCAGA` the E-score was 0.318.

Series 2
SMILES: CC(=O)c1ccc(N2CCOCC2)cc1O
Observed: enzyme activity
Mode: inhibitor
Concentration: 0.5 µM
Baseline: control
MAP kinase-activated protein kinase 2 (MAPKAPK2, Homo sapiens, UniProt P49137) — remaining activity: 103%.
For Casein kinase I isoform gamma-2 (CSNK1G2, Homo sapiens, UniProt P78368): remaining activity read 102%.
For Serine/threonine-protein kinase TAO2 (TAOK2, Homo sapiens, UniProt Q9UL54): remaining activity read 107%.
The remaining activity was 91.4% (Fibroblast growth factor receptor 1 (FGFR1, Homo sapiens, UniProt P11362)).
For Fibroblast growth factor receptor 3 (FGFR3, Homo sapiens, UniProt P22607): remaining activity read 105%.
It gave 104% for remaining activity (Macrophage-stimulating protein receptor (MST1R, Homo sapiens, UniProt Q04912)).
The remaining activity was 91.6% (Tyrosine-protein kinase FRK (FRK, Homo sapiens, UniProt P42685)).
For Angiopoietin-1 receptor (TEK, Homo sapiens, UniProt Q02763): remaining activity read 101%.
The remaining activity was 101% (Tyrosine-protein kinase Mer (MERTK, Homo sapiens, UniProt Q12866)).
It gave 114% for remaining activity (Serine/threonine-protein kinase ULK2 (ULK2, Homo sapiens, UniProt Q8IYT8)).
The remaining activity was 100% (Activin receptor type-1B (ACVR1B, Homo sapiens, UniProt P36896)).
Ribosomal protein S6 kinase alpha-2 (RPS6KA2, Homo sapiens, UniProt Q15349) — remaining activity: 98.6%.
For Serine/threonine-protein kinase Nek6 (NEK6, Homo sapiens, UniProt Q9HC98): remaining activity read 96.5%.

Series 3
Target: Translocator protein (Tspo, Rattus norvegicus, UniProt P16257)
Chain of UniProt P16257 (whole entry, looked up): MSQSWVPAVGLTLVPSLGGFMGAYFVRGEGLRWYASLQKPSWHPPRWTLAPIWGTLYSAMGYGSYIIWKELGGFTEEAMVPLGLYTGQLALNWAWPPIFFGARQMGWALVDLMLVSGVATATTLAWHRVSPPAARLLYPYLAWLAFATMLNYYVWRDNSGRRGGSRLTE
Observed: radioligand binding
Method: radioligand displacement
Concentration: 10 µM
The inhibition of `CNC(=O)Nc1ccc2c(c1)C1(CC2)OC(=O)N(CC(=O)N(Cc2ccc(F)cc2)[C@@H](C)C(F)(F)F)C1=O` (single isomer, unassigned) is reported as 50.6%.
For `O=C(Nc1cnc(Oc2ccc(F)cc2)nc1)N1CCc2ncccc2[C@@H]1c1ccc(F)cc1`, the inhibition was 44.6%.
The inhibition of `CCCCN(CCCC)C(=O)CN1C[C@@H](c2cc(OC)c3c(c2)OCO3)[C@H](C(=O)O)[C@H]1CC(C)(C)CCC` is reported as 22.9%.
For `O=C([C@H]1C[C@H](O)CN1c1ccc(Cl)cc1)N1CC2COCC(C1)N2Cc1ccc(Cl)cc1`, the inhibition was -8.33%.

Series 4
Target: Phosphate system positive regulatory protein PHO4, full length, GST-tagged (PHO4, Saccharomyces cerevisiae, UniProt P07270, residues 1-312)
Method: competition protein-binding microarray
Form: double-stranded DNA, one strand shown
Matrix: in vitro
Concentration: 2 µM
Notes: whole 60-bp probe, lowest competitor level
With: Cbf1 competitor, 0.05 µM
Direction: higher = stronger binding
Constant ends, left off below: … GTCTTGATTCGCTTGACGCTGCTG
Target sequence (chain): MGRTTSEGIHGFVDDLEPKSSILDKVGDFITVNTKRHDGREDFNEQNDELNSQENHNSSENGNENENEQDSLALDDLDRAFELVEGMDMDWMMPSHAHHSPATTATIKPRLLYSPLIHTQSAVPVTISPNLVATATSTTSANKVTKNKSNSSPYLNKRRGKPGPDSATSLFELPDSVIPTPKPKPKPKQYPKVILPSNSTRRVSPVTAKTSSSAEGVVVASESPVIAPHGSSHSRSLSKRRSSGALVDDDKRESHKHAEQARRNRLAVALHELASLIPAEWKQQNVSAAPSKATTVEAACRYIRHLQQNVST
The fluorescence intensity of `AAAGCGGTAATTTTTCACGTGACCTCACATATCTAT` is reported as 9710 a.u.
`CTTTCCCGATCTTTTCACGTGAGGTTAGCACATTTG` gave a fluorescence intensity of 11400 a.u.
`AATTAGAACCCATGTCCCGTGGAAGCGTTTTAAAAG` has a fluorescence intensity of 7740 a.u.
`GTCTTGTCTCATTTTCACGTGAACTTCCCCACTTCA` gave a fluorescence intensity of 8740 a.u.
For `TTCCAACTGTTTTTGCACGCAAATTCGTCCAACCGG`, the fluorescence intensity was 4380 a.u.
`CGTCCTAGTGATTGTCACCTAACTTCCATGAGGAAG` gave a fluorescence intensity of 3990 a.u.
With `ACCCGTAGTGGATGTGGCGTGCGGATGGGACTCGAC` the fluorescence intensity was 7790 a.u.
For `AAGTTCCACAAGGTGCTCGTGTTGACACTGAAAAGT`, the fluorescence intensity was 11100 a.u.

For quick reference, copied from above (series 2):
The remaining activity was 100% (Activin receptor type-1B (ACVR1B, Homo sapiens, UniProt P36896)).
For Fibroblast growth factor receptor 3 (FGFR3, Homo sapiens, UniProt P22607): remaining activity read 105%.
For Serine/threonine-protein kinase TAO2 (TAOK2, Homo sapiens, UniProt Q9UL54): remaining activity read 107%.
Ribosomal protein S6 kinase alpha-2 (RPS6KA2, Homo sapiens, UniProt Q15349) — remaining activity: 98.6%.
